Published values of several laboratories.
Several values in a cell are separate wells, animals, samples, runs or records. ± marks the error that the study gave.

| Structure (SMILES) | test | system | conditions | scale | endpoint | result |
| --- | --- | --- | --- | --- | --- | --- |
| O=C(O)CNC(=O)Cc1ccccc1 |  | ventricular cardiomyocytes, C57BL/6 mouse | dose not given, 0.492 s |  | sarcomere length | 1.65 µm |
| Cc1ccc(S(=O)(=O)NC(=O)c2cc3ccccc3n2Cc2ccc(C3CC3)c3ccccc23)cc1 |  | male mouse, acute hyperuricaemia model, serum | oral, 2 mg/kg, 4 h |  | serum uric acid | 335 ± 189 µM |
| N#Cc1ccn2c(-c3ccncc3)c(-c3ccc(F)cc3)nc2c1 | kinase binding, competitor, MIB/MS competition, item: PKH2 | Candida albicans cell lysate | 100 nM | reference: DMSO | log2 fold change | -0.184 |
| O=C(O)CCc1nccc2c3ccccc3n(Cc3ccc(C4CC4)cc3)c12 |  | mouse, acute hyperuricaemia model, serum | oral, 2 mg/kg, individual animal data |  | serum uric acid | 942 µM and 621 µM and 850 µM and 990 µM and 683 µM |
| CC(C)[C@H](NC(=O)[C@H](Cc1ccc(O)cc1)NC(=O)[C@H](Cc1ccc(O)cc1)NC(=O)[C@@H]1CCCN1C(=O)[C@H](CCC(=O)O)NC(=O)[C@H](CCC(=O)O)NC(=O)[C@H](Cc1c[nH]c2ccccc12)NC(=O)[C@@H]1CCCN1C(=O)[C@@H](NC(=O)[C@H](CCC(N)=O)NC(=O)c1ccc2c(c1)C(=O)OC21c2ccc(O)cc2Oc2cc(O)ccc21)C(C)C)C(=O)N[C@H](C(=O)N[C@@H](CCCCN)C(=O)N[C@@H](CCCCN)C(=O)N[C@@H](CO)C(=O)N[C@@H](CO)C(=O)NCC(=O)NCC(N)=O)C(C)C | nerve discrimination | head and neck surgery patients | 500 mg | reference: white light | surgeons rating slightly improved | 21.4% |
| CCN1CCN(Cc2ccc(Nc3ncc(F)c(-c4cc(F)c5nc6n(c5c4)[C@H](C)CCC6)n3)nc2)CC1 | RECIST v1.1 | advanced solid tumour patients | 300 mg, Phase Ia monotherapy |  | disease control rate | 66.7% |
| C[C@H]1C[C@H]2CSC(N)=N[C@@]2(c2nc(NC(=O)c3ccc(OC(F)F)cn3)cs2)CO1 | item: Aβx-40 | healthy adults, plasma | 15 mg once daily, day 10 | reference: placebo | percent change from baseline | -50.9% |
| [Cl-].[Cl-].[Pt+2].[Ru+2].c1ccc(-c2nc3cc4ccccc4cc3nc2-c2ccccn2)nc1.c1cnc2c(c1)ccc1cccnc12.c1cnc2c(c1)ccc1cccnc12 |  |  | concentration not given, second substitution step, together with: thiourea |  | activation enthalpy | 9.32 ± 0.717 kcal/mol |
| Cc1cn(-c2ccc3n(c2=O)CCN([C@@H](C)[C@@H]2CC[C@H](c4cc(F)c(Cl)cc4C(F)(F)F)O2)C3=O)cn1 | item: amyloid beta 40 | human, non-elderly, cerebrospinal fluid | 40 mg once daily, 14 days, sampled 336 h | reference: placebo | change from baseline | -5.89% |
| N#Cc1ccc2c(-c3ccncc3)c(-c3ccc(F)cc3)nn2c1 | kinase binding, competitor, MIB/MS competition, item: CEK1 | Candida albicans cell lysate | 1 µM | reference: DMSO | log2 fold change | 0.447 |
| CCO[C@H]1CCN(Cc2c(OC)cc(C)c3[nH]ccc23)[C@H](c2ccc(C(=O)O)cc2)C1 |  | PNH patients, blood | oral, 25 mg then 100 mg, week 8, mean percent change | reference: baseline | PNH RBC clone size | 187% |
| c1ccc(-c2n[nH]cc2-c2ccnc3ccccc23)nc1 | kinase binding, competitor, MIB/MS competition, item: TOR1 | Candida albicans cell lysate | 10 µM | reference: DMSO | log2 fold change | 0.732 |
| Cc1ccc([C@@H]2O[C@H](CO)[C@@H](O)[C@H](O)[C@H]2O)cc1Cc1ccc(-c2ccc(F)cc2)s1 |  | Japanese type 2 diabetes patients | 100 mg, day 1 | reference: day 0 | change in 24-h mean serum insulin | -2.2 µU/mL |
| C#CCNS(=O)(=O)c1ccc(CCN(Cc2cc(Cl)ccc2OCCC)C(=O)c2ccc(F)cc2)cc1 |  | Nlrp3-/- mouse LPS challenge | 10 mg/kg |  | serum TNF-alpha | inactive |
| C[C@@H](NC(=O)N1C(=O)[C@H](Cc2ccnc(N)c2)[C@H]1C(=O)O)C1CCCCC1 |  | human | iv infusion, 2.25 mg/kg/h, 24 h, unit not given | reference: baseline | ACT AUEC | 120 |
| [Cl-].[Cl-].[Pt+2].[Ru+2].c1ccc(-c2nccnc2-c2ccccn2)nc1.c1cnc2c(c1)ccc1cccnc12.c1cnc2c(c1)ccc1cccnc12 |  |  | concentration not given, second substitution step, together with: guanosine 5'-monophosphate |  | activation enthalpy | 10.5 ± 0.956 kcal/mol |
| N#Cc1ccc2c(c1)[C@H]1CCCN(C(=O)c3ccc4[nH]cnc4c3)[C@H]1C2 |  | T2DM patients with overweight or obesity, plasma | oral, 20 mg, day 15 (360 h), multiple dosing, mean |  | plasma 1,5-anhydroglucitol | 13.9 µg/mL |
| N[C@@H](CC(=O)N1CCn2c(nnc2C(F)(F)F)C1)Cc1cc(F)c(F)cc1F | flow cytometry | model, mouse, lung injury, LPS-induced | oral, 100 mg/kg twice daily, 1 d post injury |  | Ki-67+ AEC2 cells | 70% |
| C=CCn1c(=O)c2cnc(Nc3ccc(N4CCN(C)CC4)cc3)nc2n1-c1ccc2c(n1)[C@@](O)(CC)CC2 |  | human, target lesions | oral, 350 mg once daily, cycle 3 |  | target lesion reduction | 49% |
| NC(=O)c1cnc2[nH]ccc2c1N[C@@H]1[C@@H]2CC3C[C@H]1C[C@@](O)(C3)C2 | flow cytometry | Japanese healthy men, blood | oral, 10 mg twice daily, 72 h after day 7 dose | reference: baseline | CD4+ central memory change | -0.43% |
| O=C(NS(=O)(=O)c1cccc(Br)c1)c1cc2ccccc2n1Cc1ccc(Br)c2ccccc12 |  | mouse, acute hyperuricemia model | dose not given |  | serum uric acid | 386 µM and 458 µM and 738 µM and 618 µM and 314 µM and 238 µM and 476 µM |
| CC(C)NCC(O)c1ccc(O)c(O)c1 (centres unmarked) |  | ventricular cardiomyocytes, C57BL/6 mouse | dose not given, 0.488 s |  | sarcomere length | 1.55 µm |
| Cn1cc(Nc2nccc(-c3ccc4c(c3)CN(C3COC3)CC[C@H]4NC(=O)c3cn(C(C)(C)C)nn3)n2)cn1 | item: mevalonate pathway I | splenic B cells, mice | 30 mg/kg, IgD-activated in vivo | reference: vehicle, direction not given | pathway activation z-score | -1.34 |
| O=C(O)/C=C/c1nccc2c3ccccc3n(Cc3ccc(Br)c4ccccc34)c12 |  | mouse, acute hyperuricaemia model | oral, 2 mg/kg |  | serum uric acid | 273 µM |

| Structure (SMILES) | test | system | conditions | scale | endpoint | result |
| --- | --- | --- | --- | --- | --- | --- |
| CN(C)C(=O)Oc1cccc([N+](C)(C)C)c1 | neuromuscular block reversal | rat | dose not given, 21.5 (unit not given), together with: cisatracurium | reference: T1 twitch | train-of-four ratio | 98.4 |
| COc1ncc(-c2nc3c(n2C(C)C)[C@H](c2ccc(Cl)cc2)N(c2cc(Cl)cn(C)c2=O)C3=O)c(OC)n1 | International Working Group criteria | human acute myeloid leukemia patients | oral, 350 to 400 mg, response CR, high-dose, other doses |  | best overall response | 8.3% |
| O=C(c1ccc(OCCN2CCCCC2)cc1)c1c(-c2ccc(O)cc2)sc2cc(O)ccc12 |  | male ICR-CD1 mice, formalin test | intracerebroventricular, 100 µg/animal, 15 to 20 min |  | paw licking time | 0 s |
| C=Cc1ccccc1B(O)O | iEDDA reaction | methanol/water | 21 °C, together with: tetrazine |  | activation free energy ΔG‡ | 20.1 kcal/mol |
| O=C(NS(=O)(=O)C1CC1)c1cc2ccccc2n1Cc1ccc(C2CC2)c2ccccc12 |  | male mouse, acute hyperuricaemia model, serum | oral, 2 mg/kg, 4 h |  | serum uric acid | 327 ± 101 µM |
| c1ccc(-c2cc(-c3ccccc3)n(Cn3ccnc3)n2)cc1 |  | rat, STZ-nicotinamide diabetic | 75 mg/kg, 360 h, full-thickness excision wound |  | wound size | 13.3 mm |
| Cc1cn[nH]c1 | barrier function (TEER) | human ileal GI microtissue EpiIntestinal-FT |  |  | IC15 | > 100 µM |
| CN[C@@H](C)C(=O)N[C@H]1CN(S(=O)(=O)c2cccc(S(=O)(=O)N3CC[C@H]4CC[C@@H](C(=O)NC(c5ccccc5)c5ccccc5)N4C(=O)[C@@H](NC(=O)[C@H](C)NC)C3)c2)CC[C@H]2CC[C@@H](C(=O)NC(c3ccccc3)c3ccccc3)N2C1=O | RECIST 1.1 | advanced pancreatic cancer patients | dose not given, no prior therapy, together with: AG |  | disease control rate | 100% |
| Cc1cc(-c2nc(C(=O)Nc3cc4oc(N5CCOCC5)nc4nc3N3CC[C@@H](O)C3)co2)ccn1 | immunohistochemistry | mouse, A20 PCNSL model | 100 mg/kg, day 7 | reference: vehicle | Ki67 expression | decreased |
| Cc1ccc(Nc2c(F)cccc2Cl)c(CC(=O)O)c1 | bioactivation, item: dansyl glutathione adduct M6a | human | pathway 3 |  | Vmax | 4.2 pmol/min/mg protein |
| CCCCC1(CCCC)CN(c2ccccc2)c2cc(SC)c(OCC(=O)N[C@@H](C(=O)NCC(=O)O)c3ccccc3)cc2S(=O)(=O)C1 | item: 7α-hydroxy-4-cholesten-3-one | human, plasma | 10 mg once daily, day 5 |  | plasma C4 | 57.8 ng/mL |
| CC(=O)NCC(=O)NCC(=O)N[C@H](C(=O)N[C@@H](Cc1ccc(O)cc1)C(=O)N[C@@H](CO)C(=O)N[C@H]1CSSC[C@@H](C(=O)N[C@@H](CCCNC(=N)N)C(=O)N2CCC[C@H]2C(=O)N[C@@H](CCC(N)=O)C(=O)N[C@@H](CCCNC(=N)N)C(=O)NCC(=O)NCCC(=O)N[C@@H](CCCCNC(=O)CN(CC(=O)NCCCC[C@H](NC(=O)CCNC(=O)CNC(=O)[C@H](CCCNC(=N)N)NC(=O)[C@H](CCC(N)=O)NC(=O)[C@@H]2CCCN2C(=O)[C@H](CCCNC(=N)N)NC(=O)[C@@H]2CSSC[C@H](NC(=O)[C@H](CO)NC(=O)[C@H](Cc3ccc(O)cc3)NC(=O)[C@@H](NC(=O)CNC(=O)CNC(C)=O)[C@@H](C)O)C(=O)N[C@@H](Cc3c[nH]cn3)C(=O)N[C@@H](Cc3ccccc3)C(=O)NCC(=O)N[C@@H](C)C(=O)N[C@@H](CC(C)C)C(=O)N[C@@H]([C@@H](C)O)C(=O)N[C@@H](Cc3c[nH]c4ccccc34)C(=O)N[C@@H](C(C)C)C(=O)N2)C(N)=O)C(=O)CCN)C(N)=O)NC(=O)[C@H](C(C)C)NC(=O)[C@H](Cc2c[nH]c3ccccc23)NC(=O)[C@H]([C@@H](C)O)NC(=O)[C@H](CC(C)C)NC(=O)[C@H](C)NC(=O)CNC(=O)[C@H](Cc2ccccc2)NC(=O)[C@H](Cc2c[nH]cn2)NC1=O)[C@@H](C)O |  | healthy BALB/c mice | subcutaneous, 0.08 mg/kg, 6 d, single dose |  | haemoglobin | 166 g/L |
| C[C@@H](O)CCOC(=O)C[C@@H](C)O | item: C5 acylcarnitine | human, plasma | 60 min, log2-transformed values |  | metabolite level | -2.89 ± 0.74 µmol/L |
| CC(C)[C@H](C(=O)Nc1ccc(C(=O)NO)cc1)c1ccccc1 | MRI volumetry | human, right IAC schwannoma | dose not given, day 2037 post-treatment |  | tumour volume | 0.0368 cm³ |
| NCC(=O)Nc1cncc(-c2nn3c(=O)cc(N4CCNCC4)nc3s2)c1 | ADP-induced platelet aggregation, light transmission aggregometry | human, stable CAD on aspirin, ex vivo platelets | subcutaneous, 0.05 mg/kg, 240 min post-dose, median value, together with: ADP 20 µM |  | inhibition | 10.6% |
| COc1cc2cc(-c3ccc(CC(=O)Nc4cc(C(C)(C)C(F)(F)F)no4)cn3)cnc2cc1OC | RECIST v1.1 | RET-altered advanced solid tumour patients | oral, 10 mg once daily, phase I |  | disease control rate | 100% |
| CN[C@@H]1COc2c(S(=O)(=O)NC(=O)Nc3c4c(cc5c3CCC5)CCC4)cnn2C1 | item: IL-18 | human participants, whole blood ex vivo | 300 mg twice daily, multiple doses, 12 h, IL-18, circulating, adjusted for, together with: LPS/ATP | reference: baseline | inhibition | 87.2% |
| N#CCNC(=O)c1ccc(-c2ccnc(Nc3ccc(N4CCOCC4)cc3)n2)cc1 |  | patients with myelofibrosis | dose not given, 24 weeks, phase III trials |  | rate of spleen volume reduction ≥35% | 25.8% |
| C[C@H](Oc1ccc(Br)cc1-c1ccon1)C(=O)O | last response peak | human, tibialis anterior muscle | 1200 mg, 30 Hz, single ascending dose |  | difference from placebo | -8.68% |
| CC1(C)OB(c2ccccc2/C=N/NC(=O)c2ccncc2)OC1(C)C | LC-UV | DMEM cell medium | 100 µM, 37 °C, together with: H2O2 200 µM |  | activation rate constant | 0.0934 ± 0.0026 h⁻¹ |
| [Cl-].[Cl-].[Pt+2].[Ru+2].c1ccc(-c2nc3ccccc3nc2-c2ccccn2)nc1.c1cnc2c(c1)ccc1cccnc12.c1cnc2c(c1)ccc1cccnc12 |  |  | concentration not given, first substitution step, together with: guanosine 5'-monophosphate |  | activation enthalpy | 7.89 ± 0.478 kcal/mol |
| CSCCNc1nc(SCCC(F)(F)F)nc2c1ncn2[C@@H]1O[C@H](COP(=O)(O)OP(=O)(O)C(Cl)(Cl)P(=O)(O)O)[C@@H](O)[C@H]1O | ADP-induced platelet aggregation, light transmittance aggregometry | human patients, platelet-rich plasma | dose not given, 15 min, aggregation above 59%, together with: ADP 20 µM | reference: patients | high residual platelet reactivity | 57.5% |
| N#Cc1ccc2c(c1)[C@H]1CCCN(C(=O)c3ccc4[nH]cnc4c3)[C@H]1C2 | item: HDL | human | 20 mg once daily, day 28, adjusted mean |  | change from baseline | -0.82 mg/dL |
